Measured values of several laboratories.
± gives the spread as reported.
B1: PTPN2 (Homo sapiens, UniProt P17706); chain MPTTIEREFEELDTQRRWQPLYLEIRNESHDYPHRVAKFPENRNRNRYRDVSPYDHSRVKLQNAENDYINASLVDIEEAQRSYILTQGPLPNTCCHFWLMVWQQKTKAVVMLNRIVEKESVKCAQYWPTDDQEMLFKETGFSVKLLSEDVKSYYTVHLLQLENINSGETRTISHFHYTTWPDFGVPESPASFLNFLFKVRESGSLNPDHGPAVIHCSAGIGRSGTFSLVDTCLVLMEKGDDINIKQVLLNMRKYRMGLIQTPDQLRFSYMAIIEGAKCIKGDSSIQKRWKELSKEDLSPAFDHSPNKIMTEKYNGNRIGLEEEKLTGDRCTGLSSKMQDTM
B2: enzyme A172S/A173G/C179K/M174T/Q178P (Streptomyces platensis, UniProt A0A0A0V031); chain MQHTTIGDVLREHRRSHPGRTALVDGPVRLTWPELDDRVNRLAGSLAASGIGRGDRIMWLGQNSFRVYELIAAAGKLGAMVCVGYWRWAPPEMEFALRDFDPHLVVWQHQEIHETVARTREALGSDDTARWLRHDSAPQDPDGYEAFLAAGGLADPDLDIDPDSPVLVLYTSGTSGRPKGSLLSHTNLIAMATAAAWLGDIDHTTAFLNSGPMFHIGNHQFWGMPTLLMAGKNVIVRRVVAEEVRDLLVAEECTHAFLMPPTVAEIVRLNRDTGHDLSRLRATVAPHLWEGMATTDTSRFTRSGAAAGRGYGQTELSGFAVTAAYGGPAAGNAGRPGPGLTVRVLDTAGRECAVGEAGEICARGTVVHRGYWNRDEVNAHRFRSGWWHTTDLGRREPDGSLTFLGTTTRMLKSAAENIFPAEVENCIEQHPAVREAAVIGVPNTRWAQDVKAVVVLEPDAGVSEQEIIDHCRPRIASYKKPKSVAFAAALPRTVSGARDYDALDKEYGGGGYPGAATLGPGR
UniProt Q50EL0, sequence (whole entry, looked up): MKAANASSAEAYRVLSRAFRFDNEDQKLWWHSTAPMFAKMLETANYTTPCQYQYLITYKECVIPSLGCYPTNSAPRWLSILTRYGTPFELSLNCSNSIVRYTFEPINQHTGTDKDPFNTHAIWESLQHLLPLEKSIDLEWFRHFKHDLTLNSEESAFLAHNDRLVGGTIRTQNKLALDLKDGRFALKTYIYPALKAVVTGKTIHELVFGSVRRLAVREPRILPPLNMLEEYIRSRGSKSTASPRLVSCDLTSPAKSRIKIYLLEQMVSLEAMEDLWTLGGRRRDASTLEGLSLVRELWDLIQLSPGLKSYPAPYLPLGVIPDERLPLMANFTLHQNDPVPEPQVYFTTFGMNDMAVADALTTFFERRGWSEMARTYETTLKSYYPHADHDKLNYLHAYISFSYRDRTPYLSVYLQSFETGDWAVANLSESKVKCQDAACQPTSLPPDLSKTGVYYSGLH
UniProt P21729, sequence (whole entry, looked up): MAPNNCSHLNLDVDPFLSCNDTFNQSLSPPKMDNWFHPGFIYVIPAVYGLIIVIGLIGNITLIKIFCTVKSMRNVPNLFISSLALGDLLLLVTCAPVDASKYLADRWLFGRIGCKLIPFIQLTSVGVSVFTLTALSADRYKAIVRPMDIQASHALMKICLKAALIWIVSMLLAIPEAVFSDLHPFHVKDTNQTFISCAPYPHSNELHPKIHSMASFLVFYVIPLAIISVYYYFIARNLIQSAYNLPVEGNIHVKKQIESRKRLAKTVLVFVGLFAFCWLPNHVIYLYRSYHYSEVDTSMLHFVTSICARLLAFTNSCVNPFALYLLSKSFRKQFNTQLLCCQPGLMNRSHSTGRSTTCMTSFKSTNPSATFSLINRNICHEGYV

N=C(N)NCCC[C@@H]1NC(=O)[C@H](CCCCNC(=O)CC[C@H](NC(=O)CCOCCOCCOCCOCCNC(=O)CC[C@H](NC(=O)CN2CCN(CC(=O)O)CCN(CC(=O)O)CCN(CC(=O)O)CC2)C(=O)NCCOCCOCCOCCOCCC(=O)N[C@@H](CCC(=O)NCCCC[C@@H]2NC(=O)[C@@H](Cc3ccccc3)NC(=O)[C@H](CC(=O)O)NC(=O)CNC(=O)[C@H](CCCNC(=N)N)NC2=O)C(=O)NCCCC[C@@H]2NC(=O)[C@@H](Cc3ccccc3)NC(=O)[C@H](CC(=O)O)NC(=O)CNC(=O)[C@H](CCCNC(=N)N)NC2=O)C(=O)NCCCC[C@@H]2NC(=O)[C@@H](Cc3ccccc3)NC(=O)[C@H](CC(=O)O)NC(=O)CNC(=O)[C@H](CCCNC(=N)N)NC2=O)NC(=O)[C@@H](Cc2ccccc2)NC(=O)[C@H](CC(=O)O)NC(=O)CNC1=O [indium-111 labelled]
tumour to tissue ratio (athymic nude mice, female, U-87 MG glioma xenograft, tumour and blood; intravenous, 4 h; relative to: tumour over blood): 161 ± 100

CCCC[C@H](NC(=O)CCCCCCCNC(=O)c1ccc(NN)nc1)C(=O)N[C@H]1CC(=O)NCCCC[C@@H](C(N)=O)NC(=O)[C@H](Cc2c[nH]c3ccccc23)NC(=O)[C@H](CCCNC(=N)N)NC(=O)[C@@H](Cc2ccccc2)NC(=O)[C@H](Cc2c[nH]cn2)NC1=O [technetium-99m labelled]
uptake (C57 mouse, B16/F1 melanoma, pancreas; intravenous, 4 h): 0.44 ± 0.64 %ID/g

B1 (PTPN2)
kcat (CCCC[C@H](NC(=O)[C@H](CC(=O)O)NC(=O)[C@H](CC(=O)O)NC(=O)[C@H](CCC(=O)O)NC(=O)[C@H](Cc1ccc(OP(=O)(O)O)cc1)NC(=O)[C@H](CC(=O)O)NC(=O)[C@H](CC(=O)O)NC(=O)[C@H](CCC(=O)O)NC(=O)[C@H](CC(C)C)NC(=O)[C@H](CCC(=O)O)NC(=O)[C@H](CCC(=O)O)NC(=O)c1ccc2c(c1)C1(OC2=O)c2ccc(O)cc2Oc2cc(O)ccc21)C(=O)N[C@@H](CCC(=O)O)C(=O)N[C@@H](CCC(=O)O)C(N)=O; steady-state kinetics; 21 °C): 30 ± 1.7 s⁻¹

C=Cc1c(C)c2cc3nc(c4c5[nH]c(cc6nc(cc1[nH]2)C(C)=C6CC)c(C)c5C(=O)C4)[C@@H](CCC(=O)NCC(=O)N1CCC[C@H]1C(=O)N[C@@H](CC(C)C)C(=O)NCC(=O)N[C@@H](Cc1ccccc1)C(=O)N[C@@H](CCCNC(=N)N)C(=O)N[C@H](C(=O)NCC(=O)N[C@@H](CCCCN)C(N)=O)C(C)C)[C@@H]3C
fluorescent cells (OA patient chondrocytes; flow cytometry, refers to: cellular uptake; 1 µM, 1 h): 38 ± 2%

N=C(N)NCCC[C@@H]1NC(=O)[C@H](CCCCNC(=O)CNC(=O)CNC(=O)CNC(=O)CC[C@H](NC(=O)CCOCCOCCOCCOCCNC(=O)CC[C@H](NC(=O)CN2CCN(CC(=O)O)CCN(CC(=O)O)CCN(CC(=O)O)CC2)C(=O)NCCOCCOCCOCCOCCC(=O)N[C@@H](CCC(=O)NCC(=O)NCC(=O)NCC(=O)NCCCC[C@@H]2NC(=O)[C@@H](Cc3ccccc3)NC(=O)[C@H](CC(=O)O)NC(=O)CNC(=O)[C@H](CCCNC(=N)N)NC2=O)C(=O)NCC(=O)NCC(=O)NCC(=O)NCCCC[C@@H]2NC(=O)[C@@H](Cc3ccccc3)NC(=O)[C@H](CC(=O)O)NC(=O)CNC(=O)[C@H](CCCNC(=N)N)NC2=O)C(=O)NCC(=O)NCC(=O)NCC(=O)NCCCC[C@@H]2NC(=O)[C@@H](Cc3ccccc3)NC(=O)[C@H](CC(=O)O)NC(=O)CNC(=O)[C@H](CCCNC(=N)N)NC2=O)NC(=O)[C@@H](Cc2ccccc2)NC(=O)[C@H](CC(=O)O)NC(=O)CNC1=O [indium-111 labelled]
tissue uptake (female athymic nude mice, muscle; intravenous, 3 µCi, 24 h, U-87 MG glioma xenograft): 0.3 ± 0.16 %ID/g

C[C@H]1COc2c(N3CCN(C)CC3)c(F)cc3c(=O)c(C(=O)N[C@@H](CCCNC(=N)N)C(=O)N[C@@H](Cc4ccc(-c5ccccc5)cc4)C(=O)N[C@@H](CCCNC(=N)N)C(=O)N[C@@H](Cc4ccc(-c5ccccc5)cc4)C(=O)N[C@@H](CCCNC(=N)N)C(N)=O)cn1c23
hemolysis (human erythrocytes; 3.125 µM, 1 h, 37 °C; relative to: Triton X-100): 0%

N=C(N)NCCC[C@@H]1NC(=O)[C@H](CCCCNC(=O)CC[C@H](NC(=O)CCOCCOCCOCCOCCNC(=O)CN2CCN(CC(=O)O)CCN(CC(=O)O)CCN(CC(=O)O)CC2)C(=O)NCCCC[C@@H]2NC(=O)[C@@H](Cc3ccccc3)NC(=O)[C@H](CC(=O)O)NC(=O)CNC(=O)[C@H](CCCNC(=N)N)NC2=O)NC(=O)[C@@H](Cc2ccccc2)NC(=O)[C@H](CC(=O)O)NC(=O)CNC1=O [indium-111 labelled]
tissue uptake (female athymic nude mice, liver; intravenous, 3 µCi, 0.5 h, U-87 MG glioma xenograft): 2.84 ± 0.36 %ID/g

dmaW (Aspergillus fumigatus, UniProt Q50EL0)
kcat/Km (C/C(Cl)=C/COP(=O)(O)OP(=O)(O)O; steady-state kinetics; pH 7.5, 35 °C): 41.7 ± 6.67 M⁻¹ s⁻¹

CCCNC(=O)[C@H](CC(C)C)NC(=O)[C@H](Cc1c[nH]cn1)NC(=O)CNC(=O)[C@@H](NC(=O)[C@H](C)NC(=O)[C@H](Cc1c[nH]c2ccccc12)NC(=O)[C@H](CCC(N)=O)NC(=O)[C@@H](Cc1ccccc1)NC(=O)CCCCCNC(=O)CN1CCN(CC(=O)O)CCN(CC(=O)O)CCN(CC(=O)O)CC1)C(C)C [indium-111 labelled]
tissue uptake (Gastrin-releasing peptide receptor (Mus musculus, UniProt P21729); biodistribution; CF-1 mice, bone; intravenous, 1 h, unblocked): 0.07 ± 0.01 %ID/g

B2
kcat/Km (C[C@@]12CCC[C@@](C)(C(=O)OP(=O)(O)OC[C@H]3O[C@@H](n4cnc5c(N)ncnc54)[C@H](O)[C@@H]3O)[C@H]1C[C@@H](O)[C@]13C[C@H]4C[C@H](O[C@@]4(C)C1)[C@@H]23; steady-state kinetics; pH 7.8, 25 °C): 1.7e+07 M⁻¹ s⁻¹

Excerpt of the above:
N=C(N)NCCC[C@@H]1NC(=O)[C@H](CCCCNC(=O)CC[C@H](NC(=O)CCOCCOCCOCCOCCNC(=O)CN2CCN(CC(=O)O)CCN(CC(=O)O)CCN(CC(=O)O)CC2)C(=O)NCCCC[C@@H]2NC(=O)[C@@H](Cc3ccccc3)NC(=O)[C@H](CC(=O)O)NC(=O)CNC(=O)[C@H](CCCNC(=N)N)NC2=O)NC(=O)[C@@H](Cc2ccccc2)NC(=O)[C@H](CC(=O)O)NC(=O)CNC1=O [indium-111 labelled]
tissue uptake (female athymic nude mice, liver; intravenous, 3 µCi, 0.5 h, U-87 MG glioma xenograft): 2.84 ± 0.36 %ID/g
